Experimental data gathered from unrelated publications.
Every numbered part comes from another study and shows a few of its results, in no order. Substitutions count along the parent as printed.

Sample 1
Target: Interferon regulatory factor 7, full length, phosphomimetic (IRF7, Homo sapiens, UniProt Q92985, residues 1-503, S471D/S472D/S475D/S476D/S477D/S483D/S484D/S487D)
Method: protein-binding microarray
Molecule type: double-stranded DNA, one strand shown
Sample: in vitro
Tested at: 2200 nM top
Notes: 60-bp whole probe
Added: salmon DNA 0.4 mg/ml
Relative to: random background probes
Direction: higher = stronger binding
Shared flanks, not repeated: GCCTAGCAC … GTCTTGATTCGCTTGACGCTGCTG
Residues (chain): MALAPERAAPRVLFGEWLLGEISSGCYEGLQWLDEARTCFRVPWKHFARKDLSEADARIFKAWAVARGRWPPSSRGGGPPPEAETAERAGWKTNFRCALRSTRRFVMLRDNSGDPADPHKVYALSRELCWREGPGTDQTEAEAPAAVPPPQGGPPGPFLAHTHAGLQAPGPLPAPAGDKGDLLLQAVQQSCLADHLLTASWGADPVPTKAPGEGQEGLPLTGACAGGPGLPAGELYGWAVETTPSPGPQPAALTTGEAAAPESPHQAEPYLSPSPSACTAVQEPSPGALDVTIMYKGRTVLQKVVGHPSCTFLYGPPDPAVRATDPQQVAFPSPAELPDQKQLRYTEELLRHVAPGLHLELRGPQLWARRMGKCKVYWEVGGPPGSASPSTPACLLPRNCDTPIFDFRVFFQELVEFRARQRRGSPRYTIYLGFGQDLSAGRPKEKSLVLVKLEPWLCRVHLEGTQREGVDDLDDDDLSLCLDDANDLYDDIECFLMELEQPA
Sequence	fitted relative affinity [z-score]
GACGGTTCCAGTTTCGGGACGTGCTAG	4.57
TTAGATTTAGGGTTTCGATTAGTGCTA	2.02
GTAGAAAATTCATGTTATAAGTGCTAG	-0.137
TTGTAAATCTTTTTCCCTATGTGCTAG	1.08
TTAGATTCCATTTTCGATTAGTGCTAG	7.11
TCAAGTCTCAATATTAGACTGTGCTAG	-0.167
GACGGTTTCAGTCTCGGGACGTGCTAG	2.27
GACGGTTTCGGGACTGGGGACGTGCTA	3.64
TTACGTTTCGGTCTCGGTTAGTGCTAG	7
GACGATCTCAGACTGGAAACGTGCTAG	-0.0601
ACTCTTCTTTTTTTTCTTTAGTGCTAG	2.48
CTAGTTCTGCTTTGCCTTCAGTGCTAG	2.74
TTAGGTCTCGGTATCCGTTAGTGCTAG	0.945
TTGGGACTGGACACTGGGTTAGTGCTA	-0.885
TCTAATCTCACTCTGTCCCTGTGCTAG	1.7
TTAGGACTGAGTCTCGGTTAGTGCTAG	0.23
TTAGGACTGTGGTATCGGTTAGTGCTA	0.107
GACGATTTCAGTGCCGAGACGTGCTAG	0.422
TGTGTTTTCACTTTTCCTACGTGCTAG	6.56

Sample 2
Target: Ras GTPase-activating protein-binding protein 1, full length (G3BP1, Homo sapiens, UniProt Q13283)
Chain of UniProt Q13283 (whole entry, looked up): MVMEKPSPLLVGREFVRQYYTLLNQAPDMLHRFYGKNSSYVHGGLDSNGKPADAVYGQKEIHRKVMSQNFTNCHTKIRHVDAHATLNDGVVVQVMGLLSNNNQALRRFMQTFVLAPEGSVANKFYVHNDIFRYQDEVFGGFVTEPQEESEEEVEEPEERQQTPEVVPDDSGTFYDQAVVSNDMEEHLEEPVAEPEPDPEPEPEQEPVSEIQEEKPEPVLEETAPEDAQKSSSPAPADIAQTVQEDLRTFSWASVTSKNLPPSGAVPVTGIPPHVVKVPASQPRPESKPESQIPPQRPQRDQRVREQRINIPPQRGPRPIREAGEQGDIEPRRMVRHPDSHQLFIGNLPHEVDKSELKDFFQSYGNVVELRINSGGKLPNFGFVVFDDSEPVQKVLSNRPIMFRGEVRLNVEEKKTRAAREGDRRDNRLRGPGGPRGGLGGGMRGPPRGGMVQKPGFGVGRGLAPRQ
Method: RNA Bind-n-Seq
Molecule type: RNA
Sample: in vitro
Tested at: 200 nM
Notes: whole 134-nt RNA, ends assumed
Added: 150 mM KCl
Relative to: input library
Direction: higher = stronger binding
Sequence	log2 enrichment
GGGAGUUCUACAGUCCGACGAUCCUCAAGUCCUGUGCUACACAUCGUAUGUACCGAAUCGGGGAAGGGAAGGAAGGGAAAGUAUUAUGUUACGCCGUUCGGAUCUGCACUUCCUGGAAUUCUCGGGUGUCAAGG	0.21
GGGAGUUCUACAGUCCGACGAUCAGUCCUGUGCUACACAUCGUAUGUACCGAAUCAAAUUUUUAAACCCCCAAAUUUAAAAAAGUAUUAUGUUACGCCGUUCGGAUCUGCACUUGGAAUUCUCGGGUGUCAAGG	-0.502
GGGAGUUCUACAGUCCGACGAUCUGGUUCUGGCAUUUAUGACCCUUGUGAAAAAGAAGCCACUGAUGCUAUUGGGCAUCUAGACAGACAGCAACGGGAAGAUAUCACACAGAGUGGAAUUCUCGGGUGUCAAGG	-0.539
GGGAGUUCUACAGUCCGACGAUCGUGCUACACAUCGUAUGUACCGAAUCGGGGAAAAAAAGGGGUUUUUUUGGGGUUUUUUUGGGGAAAGUAUUAUGUUACGCCGUUCGGAUCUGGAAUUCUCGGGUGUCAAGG	-0.377
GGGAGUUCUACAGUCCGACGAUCCUGUGCUACACAUCGUAUGUACCGAAUCGGGGUUUUUUUGGGGUUUUUUUGGUUUUUUUGGGAAAGUAUUAUGUUACGCCGUUCGGAUCUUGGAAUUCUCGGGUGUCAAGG	-0.89
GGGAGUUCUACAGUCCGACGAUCCACAGACAACACGCACCCACUCAGACACAGAGGGAAGGGGUUGGGAUGGGGACAGGGUGCACAGCAGGGCGGGGUAGGACCCCAGCCCCUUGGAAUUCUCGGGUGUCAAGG	2.01
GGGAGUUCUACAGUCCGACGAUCACCAUGCAGGUGGGCAUCUUUGGGAGGUGGGGCAAGGGGGGGAUAGGGAGGGGGGUAACACUUUGGGAACAGGUGGUCCCAGGUCGUUUCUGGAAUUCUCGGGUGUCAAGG	1.3
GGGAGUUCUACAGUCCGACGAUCUCAAGUCCUGUGCUACACAUCGUAUGUACCGAAUCGGAAAAAAAGGAGGAAAGGAAAGUAUUAUGUUACGCCGUUCGGAUCUGCACUUCCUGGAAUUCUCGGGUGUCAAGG	-1.08
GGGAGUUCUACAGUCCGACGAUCAAGUCCUGUGCUACACAUCGUAUGUACCGAAUCGGGGAAAAGGAAAAGGAAAAGGGAAAGUAUUAUGUUACGCCGUUCGGAUCUGCACUUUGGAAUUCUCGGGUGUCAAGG	-0.562

Sample 3
Target: CCNE1, cyclin fold, Cln2 fusion (human)
Method: yeast growth competition, sequencing
Sample: yeast
Notes: strong parent motif
Relative to: not given
Direction: higher = stronger binding
Parent: ASZ1 docking peptide (human); GFGFLLFICKLTF
Substitution	normalised enrichment score
T12A	1.28
F13A	1.39
G3A	1.34
F2A	1.09
F4A	0.651
F7A	0.71

Sample 4
Target: ABI1, truncated, D143A, DHFR fusion (Arabidopsis thaliana)
Method: DHFR PCA, deep sequencing
Sample: yeast
Notes: methotrexate growth selection, single substitutions
Added: (+)-ABA 200 µM
Relative to: wild-type fitted maximum
Direction: higher = stronger binding
Parent: PYL1, truncated, DHFR fusion (Arabidopsis thaliana); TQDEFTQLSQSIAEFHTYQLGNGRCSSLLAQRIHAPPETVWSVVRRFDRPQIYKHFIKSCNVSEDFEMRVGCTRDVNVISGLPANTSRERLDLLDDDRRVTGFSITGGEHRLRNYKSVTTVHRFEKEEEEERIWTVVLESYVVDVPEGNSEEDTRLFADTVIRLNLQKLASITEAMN; partner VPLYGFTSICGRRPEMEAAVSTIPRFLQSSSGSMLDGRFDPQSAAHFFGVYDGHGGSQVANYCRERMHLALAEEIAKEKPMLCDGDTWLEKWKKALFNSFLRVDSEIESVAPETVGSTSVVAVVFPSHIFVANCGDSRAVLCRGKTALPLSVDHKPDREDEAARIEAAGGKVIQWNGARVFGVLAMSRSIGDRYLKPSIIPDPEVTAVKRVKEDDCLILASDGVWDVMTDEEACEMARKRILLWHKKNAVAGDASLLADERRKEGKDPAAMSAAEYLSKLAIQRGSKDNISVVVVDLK
Substitution	relative binding score [%]
V40G	-11.7
G71P	66.2
L8C	90
G81C	67
G71I	2.73
E4S	87.2
R69T	100
E125N	102
L169T	2.68
G81L	8.35
S59W	82.8
E151F	90.8
F157N	-2.02
E129I	98.7
I79K	95.5
R132S	113
S11I	90.4
S171P	22.9
L166N	12.4
V43L	93.6
P83F	19.6

Excerpt of the above (sample 1):
Sequence	fitted relative affinity [z-score]
TTACGTTTCGGTCTCGGTTAGTGCTAG	7
GACGATCTCAGACTGGAAACGTGCTAG	-0.0601
ACTCTTCTTTTTTTTCTTTAGTGCTAG	2.48
CTAGTTCTGCTTTGCCTTCAGTGCTAG	2.74
TTAGGTCTCGGTATCCGTTAGTGCTAG	0.945
TTGGGACTGGACACTGGGTTAGTGCTA	-0.885
TCTAATCTCACTCTGTCCCTGTGCTAG	1.7
